Published values from different studies.
Every numbered part comes from another study and shows a few of its results, in no order. Changes are numbered by the printed parent chain.

Block 1
Target: CCNA1, cyclin fold, Cln2 fusion (human)
Technique: yeast growth competition, sequencing
Matrix: yeast
Notes: weak parent motif
Relative to: not given
Reading: higher = stronger binding
Parent: WEE1 docking peptide (human); HKTFRKLRLFDTP; partner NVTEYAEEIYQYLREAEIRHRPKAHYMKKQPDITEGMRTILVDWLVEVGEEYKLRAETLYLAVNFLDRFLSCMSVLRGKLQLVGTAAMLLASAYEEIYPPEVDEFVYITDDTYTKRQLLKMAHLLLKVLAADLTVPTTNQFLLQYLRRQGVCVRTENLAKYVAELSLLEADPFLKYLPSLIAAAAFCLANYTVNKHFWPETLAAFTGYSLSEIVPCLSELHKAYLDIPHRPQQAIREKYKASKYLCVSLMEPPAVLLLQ
Substitution | normalised enrichment score
T12G | 0.536
H1Y | 0.00925
L7V | 0.177
F10H | 0.248
L7G | 0.775
F4Y | 0.411
P13V | 0.432
F10T | 0.227
R8K | 0.557
L9E | -0.453
R8V | 0.181

Block 2
Target: ABI1, truncated, D143A, DHFR fusion (Arabidopsis thaliana)
Technique: DHFR PCA, deep sequencing
Matrix: yeast
Notes: methotrexate growth selection, single substitutions
With: (+)-ABA 0.11 µM
Relative to: wild-type fitted maximum
Reading: higher = stronger binding
Parent: PYL1, truncated, DHFR fusion (Arabidopsis thaliana); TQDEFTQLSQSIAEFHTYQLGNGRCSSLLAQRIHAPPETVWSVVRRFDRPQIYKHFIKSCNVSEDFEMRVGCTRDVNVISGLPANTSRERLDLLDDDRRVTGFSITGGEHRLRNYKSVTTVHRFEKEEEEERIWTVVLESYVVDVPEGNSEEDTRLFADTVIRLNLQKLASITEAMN
Substitution | relative binding score
R132T | 49.8%
S27Q | 2.36%
F103A | -2.78%
R163C | -0.437%
F157Q | 6.38%
V118L | -4.96%
V121S | -0.807%
F157T | 3.38%
L8G | -0.504%
V43K | -12.8%
R46G | -4.68%
P36E | 17.9%

Block 3
Target: RING finger protein unkempt homolog, zinc fingers 1-6, GST-SBP tag (UNK, Homo sapiens, UniProt Q9C0B0, residues 30-357)
Technique: RNA Bind-n-Seq
Form: RNA
Matrix: in vitro
Tested at: not given
Notes: RNA with constant flanks, human-mouse chimeric sites, ends assumed
Relative to: input RNA pool
Reading: higher = stronger binding
All sequences stand within: GGGAGUUCUACAGUCCGACGAUC … CAACAGAGGAUUGAGCAUCA
Construct (chain): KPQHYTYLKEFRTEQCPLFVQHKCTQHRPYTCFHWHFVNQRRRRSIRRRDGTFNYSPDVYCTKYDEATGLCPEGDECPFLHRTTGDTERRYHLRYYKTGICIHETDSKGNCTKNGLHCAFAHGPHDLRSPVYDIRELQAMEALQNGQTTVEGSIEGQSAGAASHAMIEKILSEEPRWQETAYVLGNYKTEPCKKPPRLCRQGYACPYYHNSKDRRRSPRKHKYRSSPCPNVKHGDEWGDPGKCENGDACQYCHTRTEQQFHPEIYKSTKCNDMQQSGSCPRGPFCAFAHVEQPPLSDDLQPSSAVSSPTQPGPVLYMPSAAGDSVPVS
Strand | bound/input enrichment
AGCGUUCAGGAAUUCAUGACCUUUACAAGUCAACUGAUUGUGGAACGCUCAUCGAAAGGCAGCAGAGCUUCUGUCAAAGAACAAGAGUAUCUUUGCCAUGUCUACGUCCGGAGCGACAGU | 0.0559 ratio
AGAAUCUUGGGACUGUUUUACUUAAUUGGUCAUUGAUAGCUUAACAAGCAUGGAGAUAAGAUUAGAAAUCUUGACAUCAACAGGUAUUAAGCAGAAAAAACCAUGGCCCAGAGUAUCCUG | 0.114 ratio
GCUGGAUCUUCUAAGUACCAGUGGGACAUUAUGAAAUCCCUUGGGCUGUCUGAUGAAGACAUAGUGAAGUUUUCUGAAGCAGAGCACUGGCUUGAUUAUUUCCCACCACUGGCCGUUCAG | 0.177 ratio
AAAGUGAUAACCAUGUUUGUCCAACGACAGGUAUUUUCGGAGAGCAAGGAUGAGAUUGCGUUAGUCCUCUAUGGCACAGAUGGCACUGAUAAUGCCCUUGCUGGCAAGGACCAGUAUCAG | 0.11 ratio
UUACCCGAGAACGAGGAUGAGCUGGAGAGCACCAACAGGCGCUACACCAAGAGGGACUGCAGCACUUUCCUCAGAACUAGCGAGACGGGCAUCGUGGACCAGGUCAUGGUAACUCUCAAC | 0.11 ratio
AGAGCCCAGGAUGUUGAUGCUACAAAUCCAAAUUAUGAAAUUAUGUGUAUGAUCAGAGACUUCAGAGGGAGCUUGGAUUACAGACCCCUAACAACAGCAGAUCCUAUUGAUGAACAUAGG | 0.426 ratio
CACGUGUCUGCAGUACUUGAUGUGGACUACUCUCCCACUGGGAAGGAAUUUGUGUCUGCCAGCUUUGAUAAGUCUAUUCGAAUCUUUCCUGUGGACAAGAGCCGAAGCAGGGAGGUAUAU | 0.266 ratio
CCCUCCCCGGGCCACCCACCCCUCCCGGCUCCCCGCCGAGAUCCAGGUUUCUUCUUAUUUCAUAGCCAAUAAGAAAAAUGUUCUACGCACAUUUUGUCCUCAGUAAAAGAGGGCCUCUGG | 0.881 ratio
UCCCAAAUCCAGCAGCUAGAAGGAGCCUUGAGACAAACACUCCACACACAGGGAAGGCGAUAACAUUGUACAUUGGUUUACAUUUUUCUCCUUGAAUGAUUUUUCUAUCCUAGUGCUUGC | 0.554 ratio
CUGAGGAUACCACUGAAAGAGACAUUAAAGAAUCAUUUGAGGGCUCUGUUCGUGCAAGAAUAGUCACUGAUCGGGAAACUGGUUCUUUCCAAAGGGUUGGUUUUGUAGACUUUAAUAGUG | 0.858 ratio
GAUAAGAAAAGCUUGUUGGAGACCCGCUUGCAUGUCACUGGUAGAGACCUGAGGUGUCAAAUAGCUGAAACUUUCGGACUUCAAGAAAAUUACAUCAAGAUCGUAAUAAAUAAGAAGCAG | 0.461 ratio

Single results of other studies
Molecule | target | test | system | conditions | scale | measurement | value
PhoQ, residues 284 288 289 292 302 303 SMMNNA | PhoP, residues 12 14 15 18 19 NQGLL (Escherichia coli, UniProt P23836) | Sort-seq, refers to: YFP reporter | E. coli | PhoQ-PhoP variant library, with: 10 µM Mg2+ | relative to: high Mg2+ state, higher = stronger signaling | fold induction | 2.1

Repeated from above (block 1):
Substitution | normalised enrichment score
L7V | 0.177
F10H | 0.248
L7G | 0.775
F4Y | 0.411
